# Results of several laboratories.
# Each numbered part is a random draw from the data of one study; scales do not carry over between parts.

# Study 1 — technique: protein-binding microarray; molecule type: double-stranded DNA, one strand shown; medium: in vitro; concentration: 250 nM; notes: 60-bp whole probe; with: salmon DNA 0.4 mg/ml; baseline: random background probes; direction: higher = stronger binding; all sequences stand within: GCCTAGCAC … GTCTTGATTCGCTTGACGCTGCTG
# Target: Interferon regulatory factor 7, full length, phosphomimetic (IRF7, Homo sapiens, UniProt Q92985, residues 1-503, S101K/S471D/S472D/S475D/S476D/S477D/S483D/S484D/S487D)
# UniProt Q92985, sequence (whole entry, unmodified, looked up): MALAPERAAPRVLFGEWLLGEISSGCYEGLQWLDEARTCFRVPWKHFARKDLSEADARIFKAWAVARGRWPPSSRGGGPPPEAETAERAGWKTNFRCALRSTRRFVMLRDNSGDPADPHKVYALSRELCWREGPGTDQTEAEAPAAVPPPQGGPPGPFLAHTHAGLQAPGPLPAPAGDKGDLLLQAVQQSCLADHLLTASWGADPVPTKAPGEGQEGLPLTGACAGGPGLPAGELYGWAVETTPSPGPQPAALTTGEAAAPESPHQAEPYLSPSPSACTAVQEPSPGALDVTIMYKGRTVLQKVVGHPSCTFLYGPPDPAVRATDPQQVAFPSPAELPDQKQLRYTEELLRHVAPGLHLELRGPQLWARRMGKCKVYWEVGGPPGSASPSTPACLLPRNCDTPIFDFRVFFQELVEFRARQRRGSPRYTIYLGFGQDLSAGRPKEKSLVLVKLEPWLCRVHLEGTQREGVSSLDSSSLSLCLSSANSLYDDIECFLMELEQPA
Oligonucleotide,log fluorescence
GACGAATTCAGTCTCGAGACGTGCTAG,0.55 z-score
TTCGAACTGAGTATCGATTAGTGCTAG,0.498 z-score
TTAGGTTTCGGACTGGCTTAGTGCTAG,3.96 z-score
TTAGGAGTGGGTATCGGTTAGTGCTAG,0.24 z-score
GACGGACCGGACACTGGGGACGTGCTA,-0.796 z-score
TTGGATATCAGACTGGATTAGTGCTAG,-0.324 z-score
TTAGGTATCCTTTTCCTTCAGTGCTAG,1.6 z-score
TTAGGATTCCTACTGCTTTAGTGCTAG,0.12 z-score
TCACGTCTCTATCAAAAACTGTGCTAG,0.532 z-score
TTTTTTGTATTTTTGATAGAGTGCTAG,0.947 z-score
TCAAATTTCCCACTTTCACTGTGCTAG,2.64 z-score

# Study 2 — technique: RNA Bind-n-Seq; molecule type: RNA; medium: in vitro; concentration: not given; baseline: input RNA pool; direction: higher = stronger binding
# Target: RING finger protein unkempt homolog, zinc fingers 1-6, GST-SBP tag (UNK, Homo sapiens, UniProt Q9C0B0, residues 30-357)
# UniProt Q9C0B0, sequence (30-357, looked up): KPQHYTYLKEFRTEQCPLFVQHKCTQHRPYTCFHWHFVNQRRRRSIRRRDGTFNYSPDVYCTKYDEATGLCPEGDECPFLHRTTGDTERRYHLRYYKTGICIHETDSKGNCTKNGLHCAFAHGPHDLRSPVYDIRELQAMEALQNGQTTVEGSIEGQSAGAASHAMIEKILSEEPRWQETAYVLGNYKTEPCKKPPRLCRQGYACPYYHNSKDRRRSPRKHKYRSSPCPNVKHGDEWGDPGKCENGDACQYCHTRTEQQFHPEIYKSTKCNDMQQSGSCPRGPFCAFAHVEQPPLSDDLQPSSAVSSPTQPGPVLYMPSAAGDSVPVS
# Notes: RNA with constant flanks, human-mouse chimeric sites, ends assumed
Oligonucleotide,bound/input enrichment
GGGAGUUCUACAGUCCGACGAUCUUAAACACCAAGCUGAUGGACUCUGAUCUUGAUCUCUUCUCAGGCACGUGUGCCUUCUCUUAGUCCCUGUUUUCGGGAUGUUAUGAAUCUCAGUACUGUGGUUUGAAAGCACCAGCUUUGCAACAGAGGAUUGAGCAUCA,0.191 ratio
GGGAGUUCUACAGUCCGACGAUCUUGCUACUGACUCCCUGGGUUAAAUUCCUGUGGGAAUCAUACAGGCAGUGUUUGGACCUUCUUCGAAACAAUUCUAGAGUAGAGCGCCUUUACCAUGAUAUUGCCCAACAAGCUUUCAAACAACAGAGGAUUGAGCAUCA,0.136 ratio
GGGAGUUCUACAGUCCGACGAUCGAUAAGAAAAGCUUGUUGGAGACCCGCUUGCACAUCACUGGUAGAGAACUGAGGUCCCAAAUAGCUGAAACUUUCGGAUUUCAAGAAAAUUACAUCAAGAUCGUAAUAAAUAAGAAACAGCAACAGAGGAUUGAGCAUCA,0.327 ratio
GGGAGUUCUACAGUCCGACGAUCAGAGAAAUGAGAAAGAAUCUUACACAAGAAGAGAUGCAAAGAAUGUCUACUAGAGUCCUUUUGGCGACUCUUUCCAUCCCUAUUACUCCUGAGCGAACUGAUAUUGCUCGACUUUUGGAUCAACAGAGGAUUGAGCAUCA,0.124 ratio
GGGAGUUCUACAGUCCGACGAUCUUCAAAGGCUGUGUUAUCUGUGUCAUUUCAUAAGUAAAACUGCAUCCGGGAAAUUCUGUUCUUUUGUUUAAUUUUCCCCCAAAUGAAGCCAAAGUGUGUGUUGAAGAACUGAGAAAAAAUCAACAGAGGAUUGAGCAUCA,0.159 ratio
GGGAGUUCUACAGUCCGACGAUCGUAGCUGGGACUACAGAAAUGCUGGUAAUUUCAGUCACUUGCUGAUGACUUCUGAUGACCUAGCAAAUGUUGGCAUUGUUGACUGCUGAGAAGAUACUUCUGAGGACCCACGUCUAAGGUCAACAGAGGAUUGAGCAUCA,0.117 ratio

# Study 3 — technique: RNA Bind-n-Seq; molecule type: RNA; medium: in vitro; concentration: 365 nM; baseline: no-protein control; direction: higher = stronger binding
# Target: RNA binding protein fox-1 homolog 2, RRM domain, GST-SBP tag (RBFOX2, Homo sapiens, UniProt O43251-10, residues 100-194)
# Notes: natural RNA segment, single round, ends assumed
Oligonucleotide,RBNS enrichment (R)
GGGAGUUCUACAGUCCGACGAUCUUAUGAAGUUGACAAAAUCUAACUAUAUUUGGUGCAUCACAAUGGACACAGAAUGCUGCUGCUCCUCUUAAAAAUUAAAUGUGUCAUAUUAUAUUCUUUAAACUUACUGUUGGAAUUCUCGGGUGCCAA,0.514
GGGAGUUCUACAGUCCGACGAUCAGCUCCAGGCUCUGACUUCACCGUCACCCUCUGAAGAGCUAUGAUCAUGCUGGUGAGAAAGUAUGAUUUCCCAACCUCUGCUUGUGGUGUUGGAAGGAGUGGCCUGGCCAUGGAAUUCUCGGGUGCCAA,1.18
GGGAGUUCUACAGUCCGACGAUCGACUCUCUGCCUCACCCGCUUCAGCCCAGGGCCCCUGGAGACUGAUCCCCUCUGAGUCCUCUGCCCCUUCCAAGGACACUAAUGAGCCUGGGAGGGUGGCAGGGAGGAGGUGGAAUUCUCGGGUGCCAA,0.463
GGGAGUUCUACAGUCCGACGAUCGAGCCCAGGGUUCCAUCUCACCACCUAUAAGUUGUCAGAAACUCGGAUGCCCCUCCACCCACCUCUGGCAUCUCUAUGCUGCUAAUCUCUGCCACGUGUCCCGUGUGCUCUGGAAUUCUCGGGUGCCAA,0.386
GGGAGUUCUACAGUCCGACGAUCGCAGAGGCCACGCAUGUUUGACCAAAGCCCUCAUUGUGGUCCGAGGACAGCCUUUUCCCCAGGCCUCAGAGCAUUGCUCAUCCGUGCCAAACUGGGUAGGUGGAUUUGAGUGGAAUUCUCGGGUGCCAA,25.9
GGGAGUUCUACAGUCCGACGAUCAUAGUCUUCUUGUAAGGAGCAUUGGGCUGUCAUCUUUGAGCUGCUUAUCAAAAUACAGAUCAUUAUUGCAUAUAUGCAAAUUCUGUUUUAUUUUAUCCCUAAUAACAGAAUGGAAUUCUCGGGUGCCAA,0.679
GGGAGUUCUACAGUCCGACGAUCUCUAUAUUGUGAUACAGAAACUGUCAACUUUUCGCUCUGUGAACUGUUUUUAAGACACUUUGAUGUUUUUAUGGGGUGGUUGGUAACCUCUCAGCCUAGCCUCUCCUCACUGGAAUUCUCGGGUGCCAA,0.401
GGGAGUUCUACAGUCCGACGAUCGUUGUCAAUGGGCUCCUGAUGCCCAUAUUCUGGGGAACCUUAGAUACUGCCAUAGAAGCUAAAAGCACCCUAGCUUUCUUAGACAAUCCACUUAGCUAUCUGAAACUUGAUGGAAUUCUCGGGUGCCAA,1.02

# Study 4 — target: UBE2Q1 UBC core domain (UniProt Q7Z7E8); technique: yeast two-hybrid; medium: yeast; notes: mostly zero background; baseline: not given; direction: higher = stronger interaction
# B1: RNF32 RING domain (UniProt Q9H0A6); chain VQALRRETHECSICLAPLSAAGGQRVGAGRRSREMALLSCSHVFHHACLLALEEFSVGDRPPFHACPLCRSCYQKKILEC
# B2: RNF130 RING domain (UniProt Q86XS8); chain DKETDPDFDHCAVCIESYKQNDVVRILPCKHVFHKSCVDPWLSEHCTCPMCKLNILKALGIV
# B3: UBE4B RING domain (UniProt O95155); chain KNARAEIDYSDAPDEFRDPLMDTLMTDPVRLPSGTIMDRSIILRHLLNSPTDPFNRQTLTESMLEPVPELKEQIQAWMREKQNSDH
# B4: NHLRC1 RING domain (UniProt Q6VVB1); chain MREAEISLLECKVCFEKFGHRQQRRPRNLSCGHVVCLACVAALAHPRTLALECPFCRRACRGCDTSD
# Target sequence (chain): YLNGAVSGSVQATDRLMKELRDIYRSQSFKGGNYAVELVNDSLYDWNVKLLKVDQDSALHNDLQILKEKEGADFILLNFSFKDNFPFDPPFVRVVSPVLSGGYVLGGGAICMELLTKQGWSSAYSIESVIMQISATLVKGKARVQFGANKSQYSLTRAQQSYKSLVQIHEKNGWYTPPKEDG
Molecule,lacZ reporter activity
B1 (RNF32 RING domain),0
FLSKVEETFQCICCQELVFRPITTVCQHNVCKDCLDRSFRAQVFSCPACRYDLGRSYAMQ (UHRF1 RING domain (UniProt Q96T88)),0
B2 (RNF130 RING domain),0
KITELNPHLMCALCGGYFIDATTIVECLHSFCKTCIVRYLETNKYCPMCDVQVHKTRPLL (PCGF2 RING domain (UniProt P35227)),2010
EIKDYKARLTCPCCNMRKKDAVLTKCFHVFCFECVKTRYDTRQRKCPKCNAAFGANDFHR (RNF20 RING domain (UniProt Q5VTR2)),0
B3 (UBE4B RING domain),0
B4 (NHLRC1 RING domain),0

# For quick reference, copied from above (study 2):
Oligonucleotide,bound/input enrichment
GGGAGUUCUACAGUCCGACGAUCUUCAAAGGCUGUGUUAUCUGUGUCAUUUCAUAAGUAAAACUGCAUCCGGGAAAUUCUGUUCUUUUGUUUAAUUUUCCCCCAAAUGAAGCCAAAGUGUGUGUUGAAGAACUGAGAAAAAAUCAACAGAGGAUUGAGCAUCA,0.159 ratio
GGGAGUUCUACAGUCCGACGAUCGUAGCUGGGACUACAGAAAUGCUGGUAAUUUCAGUCACUUGCUGAUGACUUCUGAUGACCUAGCAAAUGUUGGCAUUGUUGACUGCUGAGAAGAUACUUCUGAGGACCCACGUCUAAGGUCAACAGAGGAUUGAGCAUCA,0.117 ratio
